Measured values collected from several papers.
Each numbered part is a random draw from the data of one study; scales do not carry over between parts. Positions count from the first letter of the parent shown.

Block 1 — method: protein binding microarray; form: double-stranded DNA, one strand shown; matrix: in vitro; tested at: not given; reference: not given; reading: higher = stronger binding
Target: Histone acetyltransferase KAT6A, both winged helices, GST fusion (KAT6A, Homo sapiens, UniProt Q92794, residues 1-181)
Setting: 8-mer, flanks averaged, mean of 2 arrays, mostly near background
Residues (chain): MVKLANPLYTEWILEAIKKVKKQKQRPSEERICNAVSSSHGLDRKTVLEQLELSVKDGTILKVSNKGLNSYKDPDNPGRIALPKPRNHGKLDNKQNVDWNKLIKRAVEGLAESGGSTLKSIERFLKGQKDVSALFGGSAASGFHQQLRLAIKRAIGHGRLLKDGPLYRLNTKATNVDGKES
For `GATGAGCC`, the E-score was -0.0673.
For `AAATAGCA`, the E-score was -0.189.
`ATGGAGTG` has an E-score of -0.117.
`GCGACGTA` gave an E-score of 0.103.
`ACCACCAC` has an E-score of -0.222.
For `GGAATAAA`, the E-score was -0.105.
With `ACTTGCGC` the E-score was 0.3.
For `ACGCCACC`, the E-score was -0.0798.
For `CCACCACG`, the E-score was -0.0239.
With `ACAACGCT` the E-score was 0.0362.
`CCAAATTA` has an E-score of -0.144.
For `AATATTCA`, the E-score was 0.0377.
The E-score of `GCAACTGC` is reported as 0.0612.
`ACCATCTC` has an E-score of -0.115.
For `AGCACGGA`, the E-score was 0.123.
The E-score of `AGAAAAAG` is reported as -0.199.
`CATGTAAC` has an E-score of 0.159.
The E-score of `TCGTCCCA` is reported as -0.159.
`ACCACTCG` gave an E-score of -0.0545.
For `CCGAATTA`, the E-score was -0.0199.
The E-score of `GCTTGAAC` is reported as 0.145.
`AAGTACTT` gave an E-score of 0.0155.
For `AACTGGAA`, the E-score was -0.216.
`ATCGGTCG` gave an E-score of 0.118.
The E-score of `CGACTTGC` is reported as 0.0393.

Block 2 — method: DHFR PCA, deep sequencing; matrix: yeast; with: (+)-ABA 0.11 µM; reference: wild-type fitted maximum; reading: higher = stronger binding
Target: ABI1, truncated, D143A, DHFR fusion (Arabidopsis thaliana)
Setting: methotrexate growth selection, single substitutions
Starting sequence: PYL1, truncated, DHFR fusion (Arabidopsis thaliana); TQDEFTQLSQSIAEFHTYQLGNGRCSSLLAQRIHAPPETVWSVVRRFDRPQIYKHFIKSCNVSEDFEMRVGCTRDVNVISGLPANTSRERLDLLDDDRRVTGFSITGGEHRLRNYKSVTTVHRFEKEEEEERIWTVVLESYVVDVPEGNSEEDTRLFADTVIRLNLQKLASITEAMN
For `G148A`, “relative binding score” read -1.27%.
Under “relative binding score”, `L164G` is recorded as 6.95%.
For `Y53V`, “relative binding score” read -4.62%.
Under “relative binding score”, `E147W` is recorded as -0.685%.
`C60M` — result for “relative binding score”: 4.58%.
Under “relative binding score”, `N177T` is recorded as 46.9%.
`V143Y`: “relative binding score” -9.65%.
Under “relative binding score”, `R74A` is recorded as 1.1%.
`E38C`: “relative binding score” 0.593%.
Under “relative binding score”, `D75L` is recorded as 44.1%.
`E128P` — result for “relative binding score”: 14.6%.
For `I105W`, “relative binding score” read -5.37%.
`D95K`: “relative binding score” -2.94%.
`F103V` — result for “relative binding score”: -6.78%.
Under “relative binding score”, `L166G` is recorded as 5.61%.
Under “relative binding score”, `T17L` is recorded as -10.4%.
`R69L` — result for “relative binding score”: 5.59%.
`Q51T`: “relative binding score” -0.546%.
`E127Y` — result for “relative binding score”: 24.7%.

Block 3 — target: CCNA1, cyclin fold, Cln2 fusion (human); method: yeast growth competition, sequencing; matrix: yeast; setting: weak parent motif; reference: not given; reading: higher = stronger binding
Starting sequence: MASTL docking peptide (human); PMIAKNLMCELDE; partner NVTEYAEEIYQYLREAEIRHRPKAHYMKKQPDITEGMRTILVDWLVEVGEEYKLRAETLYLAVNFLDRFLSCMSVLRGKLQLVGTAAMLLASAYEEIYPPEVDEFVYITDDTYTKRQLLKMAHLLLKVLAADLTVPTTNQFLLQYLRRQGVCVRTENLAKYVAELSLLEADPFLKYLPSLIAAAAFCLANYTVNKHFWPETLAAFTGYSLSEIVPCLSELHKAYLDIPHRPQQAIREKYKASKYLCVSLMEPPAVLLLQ
For `PTIAKNLMCELDE [M2T]`, “normalised enrichment score” read -0.0537.
Under “normalised enrichment score”, `PMGAKNLMCELDE [I3G]` is recorded as 0.311.
`PMCAKNLMCELDE [I3C]`: “normalised enrichment score” 0.0757.
Under “normalised enrichment score”, `PMIAKKLMCELDE [N6K]` is recorded as 0.346.
`PMIAKNLMCILDE [E10I]`: “normalised enrichment score” 0.397.
`PMIAKNLMCELIE [D12I]` — result for “normalised enrichment score”: -0.406.
`PLIAKNLMCELDE [M2L]`: “normalised enrichment score” 0.0729.
`PMIRKNLMCELDE [A4R]`: “normalised enrichment score” 0.419.
For `PMIAKNLMCWLDE [E10W]`, “normalised enrichment score” read -0.0561.
`PMIAKNLMCELGE [D12G]` — result for “normalised enrichment score”: 0.308.
For `PMIAKNLMCRLDE [E10R]`, “normalised enrichment score” read 0.171.
`PMVAKNLMCELDE [I3V]`: “normalised enrichment score” -0.222.
`PMIAKNLMCEVDE [L11V]`: “normalised enrichment score” 0.0972.

Block 4 — target: CEBPD, bZIP domain (human); method: DHFR protein complementation; matrix: yeast; reference: wild-type JUN-FOS pair; reading: higher = stronger binding
Setting: single substitutions, most at no-binding floor
Starting sequence: JUN, bZIP domain (human); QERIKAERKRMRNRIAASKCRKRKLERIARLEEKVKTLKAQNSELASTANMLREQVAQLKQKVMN; partner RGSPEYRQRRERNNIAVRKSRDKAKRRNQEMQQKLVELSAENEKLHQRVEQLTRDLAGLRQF
`L45W` has a binding fitness of -1.48 natural log.
`A57W` gave a binding fitness of -1.38 natural log.
`A46G` gave a binding fitness of -1.47 natural log.
With `Q55P` the binding fitness was -1.5 natural log.
`R30E` gave a binding fitness of -1.19 natural log.
For `K39C`, the binding fitness was -1.15 natural log.
`E54C` has a binding fitness of -1.34 natural log.
The binding fitness of `Q41W` is reported as -1.47 natural log.
`L45Q` has a binding fitness of -1.5 natural log.
The binding fitness of `Q41D` is reported as -1.44 natural log.
The binding fitness of `E33D` is reported as -1.31 natural log.
With `R30A` the binding fitness was -1.23 natural log.
`R53K` has a binding fitness of -1.18 natural log.
`L38F` has a binding fitness of -1.47 natural log.

Mixed results — method: two-hybrid; reference: out of 4 tests; reading: higher = firmer interaction
T1: itself; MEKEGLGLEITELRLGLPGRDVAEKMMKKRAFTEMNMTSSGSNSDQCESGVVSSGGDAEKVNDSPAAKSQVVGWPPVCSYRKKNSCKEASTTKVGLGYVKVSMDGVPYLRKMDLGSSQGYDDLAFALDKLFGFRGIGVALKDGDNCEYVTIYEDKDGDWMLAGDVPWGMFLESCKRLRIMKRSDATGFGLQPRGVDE
T2: itself; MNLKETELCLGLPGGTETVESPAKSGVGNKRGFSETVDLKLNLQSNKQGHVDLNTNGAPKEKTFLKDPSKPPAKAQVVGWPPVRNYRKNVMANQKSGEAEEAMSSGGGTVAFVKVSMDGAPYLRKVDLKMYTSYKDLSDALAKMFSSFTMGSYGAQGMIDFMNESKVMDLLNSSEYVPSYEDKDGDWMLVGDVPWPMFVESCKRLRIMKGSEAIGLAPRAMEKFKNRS
T3: itself; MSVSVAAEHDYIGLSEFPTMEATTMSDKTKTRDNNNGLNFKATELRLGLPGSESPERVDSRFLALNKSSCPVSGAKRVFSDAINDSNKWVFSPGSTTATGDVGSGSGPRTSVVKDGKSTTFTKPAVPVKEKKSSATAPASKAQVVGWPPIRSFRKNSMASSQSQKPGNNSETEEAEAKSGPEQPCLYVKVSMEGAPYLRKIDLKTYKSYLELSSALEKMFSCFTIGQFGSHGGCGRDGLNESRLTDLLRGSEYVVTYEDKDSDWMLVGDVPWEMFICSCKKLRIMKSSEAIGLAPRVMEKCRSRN
T4: itself; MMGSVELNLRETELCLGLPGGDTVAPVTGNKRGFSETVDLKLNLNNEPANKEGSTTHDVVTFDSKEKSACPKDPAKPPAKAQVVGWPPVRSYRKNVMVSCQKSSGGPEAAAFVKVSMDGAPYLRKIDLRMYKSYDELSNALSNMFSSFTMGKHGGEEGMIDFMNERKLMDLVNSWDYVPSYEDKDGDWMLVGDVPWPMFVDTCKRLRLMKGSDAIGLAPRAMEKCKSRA
B1: IAA19 (Arabidopsis thaliana, UniProt O24409); chain MEKEGLGLEITELRLGLPGRDVAEKMMKKRAFTEMNMTSSGSNSDQCESGVVSSGGDAEKVNDSPAAKSQVVGWPPVCSYRKKNSCKEASTTKVGLGYVKVSMDGVPYLRKMDLGSSQGYDDLAFALDKLFGFRGIGVALKDGDNCEYVTIYEDKDGDWMLAGDVPWGMFLESCKRLRIMKRSDATGFGLQPRGVDE
B2: IAA14 (Arabidopsis thaliana, UniProt Q38832); chain MNLKETELCLGLPGGTETVESPAKSGVGNKRGFSETVDLKLNLQSNKQGHVDLNTNGAPKEKTFLKDPSKPPAKAQVVGWPPVRNYRKNVMANQKSGEAEEAMSSGGGTVAFVKVSMDGAPYLRKVDLKMYTSYKDLSDALAKMFSSFTMGSYGAQGMIDFMNESKVMDLLNSSEYVPSYEDKDGDWMLVGDVPWPMFVESCKRLRIMKGSEAIGLAPRAMEKFKNRS
B3: IAA27 (Arabidopsis thaliana, UniProt Q9ZSY8); chain MSVSVAAEHDYIGLSEFPTMEATTMSDKTKTRDNNNGLNFKATELRLGLPGSESPERVDSRFLALNKSSCPVSGAKRVFSDAINDSNKWVFSPGSTTATGDVGSGSGPRTSVVKDGKSTTFTKPAVPVKEKKSSATAPASKAQVVGWPPIRSFRKNSMASSQSQKPGNNSETEEAEAKSGPEQPCLYVKVSMEGAPYLRKIDLKTYKSYLELSSALEKMFSCFTIGQFGSHGGCGRDGLNESRLTDLLRGSEYVVTYEDKDSDWMLVGDVPWEMFICSCKKLRIMKSSEAIGLAPRVMEKCRSRN
B4: IAA17 (Arabidopsis thaliana, UniProt P93830); chain MMGSVELNLRETELCLGLPGGDTVAPVTGNKRGFSETVDLKLNLNNEPANKEGSTTHDVVTFDSKEKSACPKDPAKPPAKAQVVGWPPVRSYRKNVMVSCQKSSGGPEAAAFVKVSMDGAPYLRKIDLRMYKSYDELSNALSNMFSSFTMGKHGGEEGMIDFMNERKLMDLVNSWDYVPSYEDKDGDWMLVGDVPWPMFVDTCKRLRLMKGSDAIGLAPRAMEKCKSRA
With `B1 (IAA19)` the positive tests was 1 (T1, itself).
For `B2 (IAA14)`, the positive tests was 0 (T2, itself).
The positive tests of `B3 (IAA27)` is reported as 2 (T3, itself).
`B4 (IAA17)` gave a positive tests of 2 (T4, itself).

For quick reference, copied from above (block 2):
Under “relative binding score”, `R74A` is recorded as 1.1%.
Under “relative binding score”, `L166G` is recorded as 5.61%.
`R69L` — result for “relative binding score”: 5.59%.
`E127Y` — result for “relative binding score”: 24.7%.
Under “relative binding score”, `L164G` is recorded as 6.95%.
Under “relative binding score”, `N177T` is recorded as 46.9%.
`F103V` — result for “relative binding score”: -6.78%.
`E128P` — result for “relative binding score”: 14.6%.
Under “relative binding score”, `T17L` is recorded as -10.4%.
Under “relative binding score”, `D75L` is recorded as 44.1%.
`V143Y`: “relative binding score” -9.65%.
